# Measurements gathered from unrelated publications.
# Protocols differ between the studies behind these lines. “And” joins repeats or separate records; there may be more than shown. ± gives the spread as reported.
Compound,tested on,assay,system,setting,scale,endpoint,result
CC[C@H](C)[C@H](NC(=O)[C@H](C)NC(=O)CNC(=O)[C@H](Cc1ccccc1)NC(=O)[C@H](CC(N)=O)NC(=O)[C@H](CC(N)=O)NC(=O)[C@H](CO)NC(=O)[C@H](CO)NC(=O)[C@H](Cc1c[nH]cn1)NC(=O)[C@@H](NC(=O)[C@H](CC(C)C)NC(=O)[C@H](Cc1ccccc1)NC(=O)[C@H](CC(N)=O)NC(=O)[C@H](C)NC(=O)[C@H](CC(C)C)NC(=O)[C@H](CCCNC(=N)N)NC(=O)[C@H](CCC(N)=O)NC(=O)[C@@H](NC(=O)[C@H](C)NC(=O)[C@@H]1CSSC[C@H](NC(=O)[C@@H](N)CCCCN)C(=O)N[C@@H](CC(N)=O)C(=O)N[C@@H]([C@@H](C)O)C(=O)N[C@@H](C)C(=O)N[C@@H]([C@@H](C)O)C(=O)N1)[C@@H](C)O)C(C)C)C(=O)N[C@@H](CC(C)C)C(=O)N[C@@H](CO)C(=O)N[C@@H](CO)C(=O)N[C@H](C(=O)N[C@@H](CC(N)=O)C(=O)N[C@H](C(=O)NCC(=O)N[C@@H](CO)C(=O)N[C@@H](CC(N)=O)C(=O)N[C@H](C(=O)N[C@@H](Cc1ccc(O)cc1)C(N)=O)[C@@H](C)O)C(C)C)[C@@H](C)O,,,isolated mouse islets,"10 µM, 24 h",reference: high over low glucose,glucose stimulation index,1.4 ± 0.2
CCCCCCNc1nc(NC2CCN(C)CC2)c2cc(OC)c(OC)cc2n1,Toxoplasma gondii,"parasite growth, luciferase reporter","HFF, tachyzoite",72 h,,EC90,0.00284 mM
N#Cc1ccc2c(-c3ccncc3)c(-c3ccc(F)cc3)nn2c1,,"kinase binding, competitor, MIB/MS competition, refers to: TPK2",Candida albicans cell lysate,100 nM,reference: DMSO,log2 fold change,0.0438
Cn1cc(-c2ccc(-c3cncc(Cl)c3N3CCC4(CCNC4=O)CC3)cc2)cn1,COLO 205,"gene expression, microarray, refers to: CTSB mRNA",,"concentration not given, 6 h",reference: untreated cells,log2 fold change,2.24
Cc1c(NC(=O)c2cccnc2)c(=O)n(-c2ccccc2)n1C,,histology,"Dmd C3333Y mice, quadriceps",dose not given,,necrotic area,9.6% and 9.1% and 11.2% and 10.3% and 7.4%
c1coc(-c2n[nH]cc2-c2ccnc3ccccc23)c1,VPS15 (Candida albicans),"kinase binding, MIB/MS competition",Candida albicans lysate,10 µM,reference: DMSO,log2 fold change,-0.1
C[C@H](Oc1ccc(Br)cc1-c1ccon1)C(=O)O,,,"human, tibialis anterior muscle","1200 mg single dose, 3.5 h post-dose",,CMAP amplitude,0.199 mV
OC(CCN1CCCCC1)(c1ccccc1)C1CC2C=CC1C2 (centres unmarked),,resting-state EEG,healthy elderly humans,"oral, 2 mg, eyes open, LS mean",,"EEG gamma power, O2 Pz",0.9 µV²
Cc1n[nH]c2ccc(-c3cc(OC[C@@H](N)Cc4ccccc4)cnc3-c3ccoc3)cc12,,"kinase binding, competitor, MIB/MS competition, refers to: TPK2",Candida albicans cell lysate,10 µM,reference: DMSO,log2 fold change,-2.41
C[C@H]1C[C@H]2CSC(N)=N[C@@]2(c2nc(NC(=O)c3ccc(OC(F)F)cn3)cs2)CO1,,refers to: Aβx-40,"healthy adults, plasma","12 mg single dose, 8 h post-dose",reference: placebo,percent change from baseline,-53.3%
Cc1cc(Nc2cc3ncccc3c(N[C@@H]3C[C@H]4CC[C@@H](C3)N4CCC#N)n2)n[nH]1,,,moderate-severe ulcerative colitis patients,"20 mg, day 28, Modified Mayo","reference: baseline, direction not given",change in endoscopic subscore,-0.4
Cc1cc(CN)cc(C)c1NC(=O)c1ccc(-c2cc(Cl)ccc2Cl)o1,Toxoplasma gondii,"parasite growth, luciferase reporter","HFF, tachyzoite",72 h,,EC90,13 mM
O=C(O)CNC(=O)Cc1ccccc1,,,"ventricular cardiomyocytes, C57BL/6 mouse","dose not given, 0.288 s",,sarcomere length,1.69 µm
NC(=O)c1cnc2[nH]ccc2c1N[C@@H]1[C@@H]2CC3C[C@H]1C[C@@](O)(C3)C2,,"flow cytometry, refers to: CD8+ memory T cells","Japanese healthy subjects, peripheral blood","oral, 10 mg twice daily, day 4",,change from baseline,-0.62%
CC(C)NCC(O)c1ccc(O)c(O)c1 (centres unmarked),,,"ventricular cardiomyocytes, C57BL/6 mouse","dose not given, 0.328 s",,sarcomere length,1.72 µm
CN[C@@H]1COc2c(S(=O)(=O)NC(=O)Nc3c4c(cc5c3CCC5)CCC4)cnn2C1,,refers to: IL-18,"human participants, whole blood ex vivo","900 mg twice daily, multiple doses, 24 h, IL-18, circulating, adjusted for, with: LPS/ATP",reference: baseline,inhibition,98.5%
CCN(Cc1nc2c(N)nc3cc(-c4cc[nH]n4)ccc3c2[nH]1)C(C)=O,,"immunohistochemistry, refers to: NK cells","patients with advanced solid tumours, non-injected tumour lesions","dose not given, monotherapy",reference: baseline,mean fold change,0.8

# Excerpt of the above:
Compound,tested on,assay,system,setting,scale,endpoint,result
NC(=O)c1cnc2[nH]ccc2c1N[C@@H]1[C@@H]2CC3C[C@H]1C[C@@](O)(C3)C2,,"flow cytometry, refers to: CD8+ memory T cells","Japanese healthy subjects, peripheral blood","oral, 10 mg twice daily, day 4",,change from baseline,-0.62%
Cn1cc(-c2ccc(-c3cncc(Cl)c3N3CCC4(CCNC4=O)CC3)cc2)cn1,COLO 205,"gene expression, microarray, refers to: CTSB mRNA",,"concentration not given, 6 h",reference: untreated cells,log2 fold change,2.24
